Measured values pooled from the literature.
Every numbered part comes from another study and shows a few of its results, in no order. Positions count from the first letter of the parent shown.

Set 1
Target: PABPC1L2, full length, GST fusion (mouse, UniProt A0ABA7IW68)
Technique: RNAcompete
Form: RNA
Matrix: in vitro
Concentration: 20 nM
Notes: 7-mer, probes averaged, single round
Relative to: mean of 7-mers
Reading: higher = stronger binding
Construct (chain): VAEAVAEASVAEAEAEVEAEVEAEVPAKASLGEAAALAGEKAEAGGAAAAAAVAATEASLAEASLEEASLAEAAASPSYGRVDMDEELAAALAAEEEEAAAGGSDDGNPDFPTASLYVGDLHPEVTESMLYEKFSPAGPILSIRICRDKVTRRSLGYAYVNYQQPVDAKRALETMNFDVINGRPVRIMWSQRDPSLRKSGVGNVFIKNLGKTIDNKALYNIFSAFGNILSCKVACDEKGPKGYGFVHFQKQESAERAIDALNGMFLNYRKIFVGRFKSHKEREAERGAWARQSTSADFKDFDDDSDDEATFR
With `ACGGUUG` the 7-mer Z-score was -0.124.
`GCUUCUC` has a 7-mer Z-score of -0.403.
`UGAAGUU` has a 7-mer Z-score of -0.307.
With `UCAACAU` the 7-mer Z-score was -0.224.
With `ACGCAUU` the 7-mer Z-score was -0.197.
With `UGGUUGG` the 7-mer Z-score was -0.151.
The 7-mer Z-score of `UCUGAGG` is reported as -0.0989.
For `CUAGACA`, the 7-mer Z-score was -0.112.
`GCUGGUC` gave a 7-mer Z-score of -0.0536.
`CUAGCAU` has a 7-mer Z-score of -0.153.
For `GAUCUAG`, the 7-mer Z-score was -0.162.
For `ACGCUGA`, the 7-mer Z-score was -0.117.
With `ACGCUAU` the 7-mer Z-score was -0.191.
`ACAGAUC` gave a 7-mer Z-score of 0.283.
`CGUAGGG` gave a 7-mer Z-score of 0.017.
For `GGAUAUA`, the 7-mer Z-score was 0.106.
`AUCUGCU` has a 7-mer Z-score of -0.306.
`CGCUUUG` has a 7-mer Z-score of -0.335.
With `CUGAAAG` the 7-mer Z-score was -0.0246.
`GGCUUGA` gave a 7-mer Z-score of -0.0301.
`GCUGUAG` gave a 7-mer Z-score of -0.101.
`UAAGGAG` gave a 7-mer Z-score of 0.0569.
With `CGGCGCU` the 7-mer Z-score was -0.021.
`UUCCCUU` has a 7-mer Z-score of -0.389.
For `CCGACUU`, the 7-mer Z-score was -0.286.

Set 2
Target: CCNF, cyclin fold, Cln2 fusion (human)
Technique: yeast growth competition, sequencing
Matrix: yeast
Notes: weak parent motif
Relative to: not given
Reading: higher = stronger binding
Starting sequence: PKN2 docking peptide (human); VSAVQKLDFSDTM; partner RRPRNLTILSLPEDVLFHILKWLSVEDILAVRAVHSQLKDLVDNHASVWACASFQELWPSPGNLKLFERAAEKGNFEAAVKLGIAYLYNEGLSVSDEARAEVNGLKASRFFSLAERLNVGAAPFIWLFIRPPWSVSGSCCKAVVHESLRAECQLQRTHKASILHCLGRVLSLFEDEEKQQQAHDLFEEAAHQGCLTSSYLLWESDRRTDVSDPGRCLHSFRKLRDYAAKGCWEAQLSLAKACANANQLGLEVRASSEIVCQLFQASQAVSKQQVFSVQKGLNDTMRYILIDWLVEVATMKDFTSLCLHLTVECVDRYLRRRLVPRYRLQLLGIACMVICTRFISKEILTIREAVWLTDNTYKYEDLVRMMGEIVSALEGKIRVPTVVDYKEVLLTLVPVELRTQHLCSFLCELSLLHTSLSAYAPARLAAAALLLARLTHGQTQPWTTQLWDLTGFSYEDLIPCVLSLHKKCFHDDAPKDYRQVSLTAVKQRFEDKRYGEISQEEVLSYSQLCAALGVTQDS
`L7C` — result for “normalised enrichment score”: 0.361.
Under “normalised enrichment score”, `D8H` is recorded as 0.423.
Under “normalised enrichment score”, `T12H` is recorded as 1.07.
`K6F`: “normalised enrichment score” -0.115.
For `A3R`, “normalised enrichment score” read -0.289.
`M13R` — result for “normalised enrichment score”: 0.655.
For `D11S`, “normalised enrichment score” read 1.17.
`V4D`: “normalised enrichment score” -1.13.
`V4N` — result for “normalised enrichment score”: -0.385.
`D8N`: “normalised enrichment score” 0.469.
`D11I`: “normalised enrichment score” 0.403.
`S2V`: “normalised enrichment score” -0.272.
`M13K` — result for “normalised enrichment score”: 0.339.
`T12D` — result for “normalised enrichment score”: -0.363.
`V1S` — result for “normalised enrichment score”: 0.489.
For `V1P`, “normalised enrichment score” read 1.35.
For `S2P`, “normalised enrichment score” read 0.756.
For `V1Q`, “normalised enrichment score” read 1.5.
Under “normalised enrichment score”, `F9S` is recorded as -0.132.
Under “normalised enrichment score”, `S2N` is recorded as 0.755.
For `T12W`, “normalised enrichment score” read 1.5.
`S2D` — result for “normalised enrichment score”: 0.19.
For `F9K`, “normalised enrichment score” read 0.214.
`V4I` — result for “normalised enrichment score”: 0.495.
Under “normalised enrichment score”, `F9E` is recorded as -0.562.

Set 3
Target: NFIL3, bZIP domain (human)
Technique: DHFR protein complementation
Matrix: yeast
Notes: single substitutions, most at no-binding floor
Relative to: wild-type JUN-FOS pair
Reading: higher = stronger binding
Starting sequence: JUN, bZIP domain (human); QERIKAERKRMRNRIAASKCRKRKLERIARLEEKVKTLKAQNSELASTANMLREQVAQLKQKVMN; partner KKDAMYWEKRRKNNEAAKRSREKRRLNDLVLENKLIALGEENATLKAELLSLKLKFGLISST
The binding fitness of `T37G` is reported as -1.39 natural log.
With `L31D` the binding fitness was -1.37 natural log.
`K39Q` has a binding fitness of -1.58 natural log.
`K34D` has a binding fitness of -1.49 natural log.
With `T37H` the binding fitness was -1.5 natural log.
With `T48W` the binding fitness was -1.35 natural log.
The binding fitness of `A40C` is reported as -1.3 natural log.
The binding fitness of `E44I` is reported as -1.59 natural log.
With `A49N` the binding fitness was -1.52 natural log.
With `V56T` the binding fitness was -1.53 natural log.
`E54V` gave a binding fitness of -1.42 natural log.
For `V35R`, the binding fitness was -1.47 natural log.
`T37Q` has a binding fitness of -1.02 natural log.
With `V56K` the binding fitness was -1.4 natural log.
The binding fitness of `L45V` is reported as -1.48 natural log.
With `I28H` the binding fitness was -1.11 natural log.
`I28Y` gave a binding fitness of -1.49 natural log.
`L59P` has a binding fitness of -1.52 natural log.
The binding fitness of `E44W` is reported as -1.46 natural log.
With `I28C` the binding fitness was -1.52 natural log.
`L45G` gave a binding fitness of -1.48 natural log.
`K39A` has a binding fitness of -1.34 natural log.
`L38D` has a binding fitness of -1.54 natural log.

Set 4
Target: Histone acetyltransferase KAT6A, winged helix 2, GST fusion (KAT6A, Homo sapiens, UniProt Q92794, residues 85-181)
Technique: protein binding microarray
Form: double-stranded DNA, one strand shown
Matrix: in vitro
Concentration: not given
Notes: 8-mer, flanks averaged, mean of 2 arrays, mostly near background
Relative to: not given
Reading: higher = stronger binding
Construct (chain): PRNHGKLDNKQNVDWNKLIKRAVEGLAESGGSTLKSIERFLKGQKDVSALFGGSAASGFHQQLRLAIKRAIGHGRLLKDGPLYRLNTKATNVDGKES
The E-score of `AGCTGCAG` is reported as -0.0206.
`ACCTATAT` has an E-score of 0.00609.
`CGCCATGC` has an E-score of 0.204.
With `TATTAAGA` the E-score was 0.107.
`GCCGTCGC` gave an E-score of 0.101.
For `GAGGTAGA`, the E-score was -0.102.
`AACTATGC` gave an E-score of 0.0483.
For `AGGTAATA`, the E-score was -0.116.
`ACCAGCGC` gave an E-score of 0.00675.
The E-score of `AATAACCT` is reported as -0.166.
The E-score of `GCTACTTA` is reported as -0.0963.
The E-score of `CACATGAA` is reported as -0.0483.
With `CGAAGGAG` the E-score was -0.0621.
The E-score of `AAACTTCG` is reported as -0.0037.
For `AAACTATA`, the E-score was -0.0894.
`ATCTTATC` has an E-score of -0.0212.
`CCACTGCA` has an E-score of -0.0428.
For `ATGCGCAG`, the E-score was 0.0171.
For `GCACCGAA`, the E-score was 0.114.
The E-score of `GGTTTCAC` is reported as -0.0449.
`CCCTCGAC` has an E-score of -0.0012.
For `ATCCATTA`, the E-score was -0.104.
With `CCGGACGC` the E-score was 0.149.
For `CCATATTC`, the E-score was 0.0757.
For `ATGACGTG`, the E-score was -0.193.

Set 5
Target: ABI1, truncated, D143A, DHFR fusion (Arabidopsis thaliana, UniProt P49597)
Technique: DHFR PCA, dose-response
Matrix: yeast
Notes: Hill fit, mean, not affinity
With: (+)-ABA, dose series
Reading: lower = more sensitive
Starting sequence: PYL1, truncated, DHFR fusion (Arabidopsis thaliana, UniProt Q8VZS8); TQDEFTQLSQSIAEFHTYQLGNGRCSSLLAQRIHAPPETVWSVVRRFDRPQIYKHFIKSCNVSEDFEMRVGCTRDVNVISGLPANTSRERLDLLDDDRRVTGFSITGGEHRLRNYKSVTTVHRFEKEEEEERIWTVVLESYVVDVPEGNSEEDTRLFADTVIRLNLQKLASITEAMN
`I52C` gave an ABA EC50 of 4.63 µM.
For `T101C`, the ABA EC50 was 6.28 µM.
The ABA EC50 of `A30T` is reported as 1.76 µM.
`L20Y` gave an ABA EC50 of 3.06 µM.
With `S104H` the ABA EC50 was 75 µM.
The ABA EC50 of `R123D` is reported as 4.59 µM.
`T17V` has an ABA EC50 of 12.5 µM.
For `T17S`, the ABA EC50 was 5.19 µM.
For `N61S`, the ABA EC50 was 2.21 µM.
`D48R` has an ABA EC50 of 147 µM.
`V44T` has an ABA EC50 of 77.9 µM.
`R163W` has an ABA EC50 of 87.7 µM.
`R90T` gave an ABA EC50 of 6.34 µM.
For `T39K`, the ABA EC50 was 1.9 µM.
The ABA EC50 of `M176P` is reported as 3.69 µM.
For `E131V`, the ABA EC50 was 4.19 µM.
With `D95C` the ABA EC50 was 10.8 µM.
`T73V` has an ABA EC50 of 1.45 µM.
For `V136W`, the ABA EC50 was 7.03 µM.
`Y53A` has an ABA EC50 of 130 µM.
For `V118I`, the ABA EC50 was 2.3 µM.
For `A84S`, the ABA EC50 was 175 µM.
For `R45G`, the ABA EC50 was 138 µM.
`T1M` gave an ABA EC50 of 1.54 µM.
The ABA EC50 of `R24C` is reported as 7.55 µM.

Excerpt of the above (set 5):
The ABA EC50 of `M176P` is reported as 3.69 µM.
`T1M` gave an ABA EC50 of 1.54 µM.
`R90T` gave an ABA EC50 of 6.34 µM.
`V44T` has an ABA EC50 of 77.9 µM.
For `T17S`, the ABA EC50 was 5.19 µM.
The ABA EC50 of `R24C` is reported as 7.55 µM.
For `E131V`, the ABA EC50 was 4.19 µM.
The ABA EC50 of `R123D` is reported as 4.59 µM.
For `R45G`, the ABA EC50 was 138 µM.
`T17V` has an ABA EC50 of 12.5 µM.
For `A84S`, the ABA EC50 was 175 µM.
`L20Y` gave an ABA EC50 of 3.06 µM.
`Y53A` has an ABA EC50 of 130 µM.
For `V118I`, the ABA EC50 was 2.3 µM.
For `T101C`, the ABA EC50 was 6.28 µM.
For `V136W`, the ABA EC50 was 7.03 µM.
For `T39K`, the ABA EC50 was 1.9 µM.
`R163W` has an ABA EC50 of 87.7 µM.
With `S104H` the ABA EC50 was 75 µM.
`T73V` has an ABA EC50 of 1.45 µM.
